Assay results gathered from unrelated publications.
Each line is one published result; not all experiments were run side by side. “And” joins repeats or separate records; there may be more than shown. Numbers after ± are the reported error.
UniProt P06276, sequence (whole entry, looked up): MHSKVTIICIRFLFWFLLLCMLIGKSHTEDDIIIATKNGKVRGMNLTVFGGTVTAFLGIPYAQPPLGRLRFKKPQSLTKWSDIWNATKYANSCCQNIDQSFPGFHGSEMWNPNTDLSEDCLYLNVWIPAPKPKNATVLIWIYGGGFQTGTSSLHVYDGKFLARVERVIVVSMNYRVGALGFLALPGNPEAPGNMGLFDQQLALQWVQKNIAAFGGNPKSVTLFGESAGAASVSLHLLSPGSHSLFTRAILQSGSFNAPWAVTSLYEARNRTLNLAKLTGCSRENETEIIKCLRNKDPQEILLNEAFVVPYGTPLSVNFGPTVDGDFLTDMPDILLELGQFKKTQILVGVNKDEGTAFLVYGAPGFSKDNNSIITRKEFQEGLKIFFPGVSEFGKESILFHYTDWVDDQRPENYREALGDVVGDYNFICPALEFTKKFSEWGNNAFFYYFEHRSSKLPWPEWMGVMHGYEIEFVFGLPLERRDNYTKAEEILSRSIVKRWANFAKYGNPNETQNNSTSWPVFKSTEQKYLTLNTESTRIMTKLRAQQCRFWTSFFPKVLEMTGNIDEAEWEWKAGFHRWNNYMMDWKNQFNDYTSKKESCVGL
UniProt P81908, sequence (whole entry, looked up): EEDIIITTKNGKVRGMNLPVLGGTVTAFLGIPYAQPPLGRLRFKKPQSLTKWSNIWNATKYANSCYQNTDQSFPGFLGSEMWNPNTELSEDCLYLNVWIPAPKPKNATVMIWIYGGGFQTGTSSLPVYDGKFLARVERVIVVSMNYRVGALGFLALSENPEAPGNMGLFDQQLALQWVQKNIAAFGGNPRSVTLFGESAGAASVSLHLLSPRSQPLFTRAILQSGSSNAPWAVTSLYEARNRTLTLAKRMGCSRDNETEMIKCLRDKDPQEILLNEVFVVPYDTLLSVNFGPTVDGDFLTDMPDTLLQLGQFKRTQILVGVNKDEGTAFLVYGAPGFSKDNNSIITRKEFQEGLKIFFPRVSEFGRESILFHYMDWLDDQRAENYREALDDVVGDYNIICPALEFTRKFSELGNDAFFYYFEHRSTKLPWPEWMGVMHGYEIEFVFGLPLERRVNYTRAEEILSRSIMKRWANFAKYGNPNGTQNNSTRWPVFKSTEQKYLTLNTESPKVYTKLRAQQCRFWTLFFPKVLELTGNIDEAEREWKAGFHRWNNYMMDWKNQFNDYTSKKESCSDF
UniProt P04191, sequence (whole entry, looked up): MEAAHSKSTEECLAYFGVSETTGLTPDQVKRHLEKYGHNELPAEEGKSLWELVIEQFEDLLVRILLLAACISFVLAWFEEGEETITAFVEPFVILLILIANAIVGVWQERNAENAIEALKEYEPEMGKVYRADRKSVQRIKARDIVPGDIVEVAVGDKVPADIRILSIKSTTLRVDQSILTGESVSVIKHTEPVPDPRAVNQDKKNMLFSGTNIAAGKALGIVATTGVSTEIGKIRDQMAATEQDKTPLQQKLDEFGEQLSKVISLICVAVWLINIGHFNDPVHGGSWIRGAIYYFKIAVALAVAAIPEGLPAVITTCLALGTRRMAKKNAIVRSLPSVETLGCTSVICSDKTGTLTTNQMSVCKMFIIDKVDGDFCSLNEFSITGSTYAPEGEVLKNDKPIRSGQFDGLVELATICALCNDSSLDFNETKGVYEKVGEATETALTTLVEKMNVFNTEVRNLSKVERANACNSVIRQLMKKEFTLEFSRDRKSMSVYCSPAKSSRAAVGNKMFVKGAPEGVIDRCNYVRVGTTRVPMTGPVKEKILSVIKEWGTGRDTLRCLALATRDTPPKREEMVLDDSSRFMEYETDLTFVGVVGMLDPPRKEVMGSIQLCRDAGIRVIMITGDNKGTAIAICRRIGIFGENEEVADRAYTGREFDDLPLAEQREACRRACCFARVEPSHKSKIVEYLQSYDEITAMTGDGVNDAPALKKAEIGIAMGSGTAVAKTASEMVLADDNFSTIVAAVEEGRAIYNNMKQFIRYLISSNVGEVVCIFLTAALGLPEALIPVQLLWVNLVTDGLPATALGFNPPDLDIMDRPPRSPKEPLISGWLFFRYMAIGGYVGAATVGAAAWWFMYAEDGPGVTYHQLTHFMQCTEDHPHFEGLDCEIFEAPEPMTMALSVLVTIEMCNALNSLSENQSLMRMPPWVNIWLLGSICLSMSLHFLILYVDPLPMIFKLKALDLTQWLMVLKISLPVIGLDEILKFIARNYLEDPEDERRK
UniProt Q9NRG4, sequence (whole entry, looked up): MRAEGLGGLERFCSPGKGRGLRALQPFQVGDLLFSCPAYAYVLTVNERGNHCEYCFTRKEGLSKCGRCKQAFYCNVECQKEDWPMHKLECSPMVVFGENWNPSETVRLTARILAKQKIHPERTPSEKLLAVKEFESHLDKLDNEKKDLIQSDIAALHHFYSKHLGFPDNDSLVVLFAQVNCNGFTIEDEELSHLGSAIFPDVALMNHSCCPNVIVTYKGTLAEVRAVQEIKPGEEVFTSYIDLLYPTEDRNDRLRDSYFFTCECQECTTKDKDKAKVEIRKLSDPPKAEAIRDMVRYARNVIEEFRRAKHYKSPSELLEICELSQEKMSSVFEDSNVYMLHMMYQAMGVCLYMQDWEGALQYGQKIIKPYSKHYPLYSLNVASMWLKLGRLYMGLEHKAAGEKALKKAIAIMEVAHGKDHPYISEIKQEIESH
UniProt P09483, sequence (whole entry, looked up): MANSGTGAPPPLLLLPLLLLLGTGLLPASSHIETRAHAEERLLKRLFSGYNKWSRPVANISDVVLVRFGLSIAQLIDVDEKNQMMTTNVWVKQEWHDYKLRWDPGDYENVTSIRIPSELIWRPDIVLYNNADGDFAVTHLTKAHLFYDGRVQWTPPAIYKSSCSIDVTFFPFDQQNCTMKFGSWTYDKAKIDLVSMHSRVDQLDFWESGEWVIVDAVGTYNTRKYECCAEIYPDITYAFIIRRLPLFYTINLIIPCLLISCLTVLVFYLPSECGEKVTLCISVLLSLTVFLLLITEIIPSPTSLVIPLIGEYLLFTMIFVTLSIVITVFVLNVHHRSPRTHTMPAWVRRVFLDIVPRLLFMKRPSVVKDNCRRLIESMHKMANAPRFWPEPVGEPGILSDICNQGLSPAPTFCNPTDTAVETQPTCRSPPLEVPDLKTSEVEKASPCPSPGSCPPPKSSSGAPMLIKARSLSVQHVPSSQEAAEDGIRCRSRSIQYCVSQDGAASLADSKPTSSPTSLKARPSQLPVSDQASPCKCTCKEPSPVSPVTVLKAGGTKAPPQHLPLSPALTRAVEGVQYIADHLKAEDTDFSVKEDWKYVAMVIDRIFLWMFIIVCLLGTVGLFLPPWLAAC
UniProt O35678, sequence (whole entry, looked up): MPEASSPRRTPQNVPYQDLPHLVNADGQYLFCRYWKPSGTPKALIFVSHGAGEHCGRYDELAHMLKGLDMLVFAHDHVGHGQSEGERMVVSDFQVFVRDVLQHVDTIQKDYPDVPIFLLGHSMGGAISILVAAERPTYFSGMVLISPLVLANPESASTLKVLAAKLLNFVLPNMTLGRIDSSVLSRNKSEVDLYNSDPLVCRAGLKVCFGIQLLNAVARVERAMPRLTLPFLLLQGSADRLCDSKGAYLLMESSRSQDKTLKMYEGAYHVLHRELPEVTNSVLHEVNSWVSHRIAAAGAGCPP
UniProt P22303, sequence (whole entry, looked up): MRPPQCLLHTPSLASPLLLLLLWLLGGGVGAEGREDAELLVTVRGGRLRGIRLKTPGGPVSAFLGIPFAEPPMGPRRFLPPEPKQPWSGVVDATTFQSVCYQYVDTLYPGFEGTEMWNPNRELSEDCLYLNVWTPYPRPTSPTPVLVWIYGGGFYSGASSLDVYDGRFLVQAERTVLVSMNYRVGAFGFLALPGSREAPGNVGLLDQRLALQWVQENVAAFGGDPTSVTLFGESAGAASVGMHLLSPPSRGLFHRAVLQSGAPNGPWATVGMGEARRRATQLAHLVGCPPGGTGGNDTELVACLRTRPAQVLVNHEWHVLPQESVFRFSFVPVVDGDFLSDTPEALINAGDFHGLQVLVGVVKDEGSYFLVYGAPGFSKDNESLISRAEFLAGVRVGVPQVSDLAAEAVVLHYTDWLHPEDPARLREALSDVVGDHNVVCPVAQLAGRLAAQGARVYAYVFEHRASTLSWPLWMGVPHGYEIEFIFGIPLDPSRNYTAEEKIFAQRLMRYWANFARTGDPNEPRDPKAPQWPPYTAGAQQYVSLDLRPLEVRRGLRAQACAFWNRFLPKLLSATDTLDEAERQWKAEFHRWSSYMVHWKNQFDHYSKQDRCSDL
UniProt P22789, sequence (whole entry, looked up): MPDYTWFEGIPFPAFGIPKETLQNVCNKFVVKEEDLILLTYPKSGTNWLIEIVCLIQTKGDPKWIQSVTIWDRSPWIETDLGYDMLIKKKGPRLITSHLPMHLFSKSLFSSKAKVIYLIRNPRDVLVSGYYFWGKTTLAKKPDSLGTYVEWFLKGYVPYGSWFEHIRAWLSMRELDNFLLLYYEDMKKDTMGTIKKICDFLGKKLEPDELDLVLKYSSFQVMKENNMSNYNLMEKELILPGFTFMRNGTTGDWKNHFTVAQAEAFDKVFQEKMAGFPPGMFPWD
UniProt P12390, sequence (whole entry, looked up): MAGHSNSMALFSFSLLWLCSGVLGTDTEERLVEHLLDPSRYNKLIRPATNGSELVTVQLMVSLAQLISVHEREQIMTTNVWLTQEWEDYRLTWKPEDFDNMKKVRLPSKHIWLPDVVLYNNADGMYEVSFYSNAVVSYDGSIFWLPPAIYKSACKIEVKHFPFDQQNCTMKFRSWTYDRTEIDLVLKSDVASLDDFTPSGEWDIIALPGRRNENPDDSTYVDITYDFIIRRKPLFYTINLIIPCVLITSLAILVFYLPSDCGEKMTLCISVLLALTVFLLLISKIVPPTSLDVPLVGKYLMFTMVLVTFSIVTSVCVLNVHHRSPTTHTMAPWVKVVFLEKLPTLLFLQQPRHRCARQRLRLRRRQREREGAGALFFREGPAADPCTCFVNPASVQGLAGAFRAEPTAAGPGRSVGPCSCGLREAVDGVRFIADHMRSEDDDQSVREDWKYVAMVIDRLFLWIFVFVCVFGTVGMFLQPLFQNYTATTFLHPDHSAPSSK

The IC50 of Oc1c(Cl)cc(-c2ccccc2)cc1Cl is reported as 64 µM (Sulfotransferase 2A6 (Sult2a6, Rattus norvegicus, UniProt P22789); enzyme activity, inhibitor; 6 min, 37 °C, with: DHEA 10 µM).
For C/C=C(/C)C(=O)O[C@H]1C(C)=C2[C@H]([C@@H]1OC(=O)CCCCCCC)[C@@](C)(OC(C)=O)C[C@H](OC(=O)CCCCCCCCCCCN)[C@@]1(O)[C@H]2OC(=O)[C@@]1(C)O, the IC50 was 0.035 ± 0.004 µM (ATP2A1 (Oryctolagus cuniculus, UniProt P04191); enzyme activity, inhibitor).
With COc1ccc(NC(=O)N2CCCCN3[C@H](CO)[C@H](c4ccc(C#CC5CC5)cc4)[C@@H]3C2)cc1 the IC50 was 23.4 µM (Phenylalanine--tRNA ligase alpha subunit (Plasmodium falciparum, UniProt Q8I246); aminoacylation activity, inhibitor).
For COCCCNc1c2c3c(cccc3[nH]c1=O)C(=O)c1ccccc1-2, the IC50 was over 10 µM (ROP18 (Toxoplasma gondii, UniProt Q2PAY2); kinase activity, inhibitor; with: peptide FL-8).
C[C@@H]1CC[C@]2(C(=O)O)CC[C@]3(C)C(=CC[C@@H]4[C@@]5(C)C[C@@H](O)[C@H](O)[C@@](C)(CO)[C@@H]5CC[C@]43C)[C@@H]2[C@]1(C)O gave an IC50 of 29.2 µg/mL (acetylcholinesterase; inhibitor, Ellman; 20 min pre-incubation, 30 min, pH 7.4, with: acetylthiocholine).
C=CCC[C@](C)(NC(=O)[C@H](CC(C)C)NC(=O)[C@H](CCCCN)NC(=O)[C@H](CC(C)C)NC(=O)[C@](C)(CCC=C)NC(=O)[C@H](Cc1ccccc1)NC(=O)[C@H](Cc1ccc(O)cc1)NC(=O)[C@H](C)NC(=O)[C@@H](N)[C@@H](C)O)C(=O)NCC(=O)N[C@@H](CCCNC(=N)N)C(=O)N[C@@H](Cc1c[nH]c2ccccc12)C(N)=O gave an IC50 of 20 µM (PC4 and SFRS1-interacting protein, with HIV integrase (Homo sapiens, UniProt O75475); LEDGF/p75-integrase interaction, inhibitor).
With O=C(/C=C/c1ccccc1)c1ccc(OCCNC2CCN(Cc3ccc(Cl)c(Cl)c3)CC2)cc1 the IC50 was 26.1 µM (Cholinesterase (BCHE, Homo sapiens, UniProt P06276); enzyme activity, inhibitor; pH 8).
For O=C(OC(C(F)(F)F)C(F)(F)F)N1CCN(Cc2cccc(Oc3ccccc3)c2)CC1, the IC50 was 0.0076 µM (Mgll (Mus musculus, UniProt O35678); competitive ABPP; mouse brain membrane proteome; with: FP-Rh probe).
The IC50 of O=C(NCCCCCn1ccc2ccc(F)cc21)Oc1ccccc1C(=O)O is reported as 2.3 µM (Cholinesterase (BCHE, Equus caballus, UniProt P81908); enzyme activity, inhibitor, HPLC).
With O=C(c1nc2ccc(OCCCCCN3CCCC3)cc2s1)N1CCCC1 the IC50 was 6.7 µM (ACHE (Homo sapiens, UniProt P22303); enzyme activity, inhibitor).
The IC50 of CCc1cncnc1N1CCN(Cc2nc3ccc(C(F)(F)F)cc3[nH]2)CC1 is reported as 6.68 µM (ERRα (human); reporter gene, antagonist, luciferase reporter qHTS).
For O=c1oc(Cl)c(Cl)c2ccccc12, the IC50 was 0.4 µM and 0.41 µM (Immunoglobulin A1 protease autotransporter (Haemophilus influenzae, UniProt P44969); inhibitor).
The IC50 of CN1CCCC1COc1ccccn1 (centres unmarked) is reported as 323 µM (Neuronal acetylcholine receptor; alpha4/beta2 (Rattus norvegicus, UniProt P09483+P12390); ligand displacement, radioligand; cell membranes).
N#CCCc1ccc2c(c1)-c1[nH]c3ccc([N+](=O)[O-])cc3c1CC(=O)N2 has an IC50 of 1.05 µM (GSK3, short isoform (Trypanosoma brucei, UniProt Q388M1); enzyme activity, inhibitor; 90 min, 30 °C, with: ATP 2 µM).
For CC(C)Cc1ccc(NC(=O)Oc2ccc3c(c2)[C@]2(C)CCN[C@@H]2N3)cc1, the IC50 was 0.00046 ± 3e-05 µM (Cholinesterase (BCHE, Homo sapiens, UniProt P06276); inhibitor; pH 8).
The IC50 of CN1C(=O)[C@]23SS[C@@]1(C)C(=O)N2[C@H]1Nc2ccccc2[C@@]1([C@@]12c4ccccc4N[C@@H]1N1C(=O)[C@@]4(C)SS[C@]1(C(=O)N4C)[C@H]2O)[C@@H]3O is reported as over 10 µM (SMYD2 (Homo sapiens, UniProt Q9NRG4); enzyme activity, inhibitor, radiometric).
The IC50 of O=C(O)c1ccc2cccnc2n1 is reported as 1100 µM (Thioredoxin glutathione reductase (Schistosoma mansoni, UniProt Q962Y6); enzyme activity, inhibitor, absorbance; with preincubation).

Repeated from above:
For CC(C)Cc1ccc(NC(=O)Oc2ccc3c(c2)[C@]2(C)CCN[C@@H]2N3)cc1, the IC50 was 0.00046 ± 3e-05 µM (Cholinesterase (BCHE, Homo sapiens, UniProt P06276); inhibitor; pH 8).
